Results from different studies.
Numbered parts are unrelated; each lists some results of a single study.

Study 1
Target: Sal-like protein 4, full length isoform A (SALL4, Homo sapiens, UniProt Q9UJQ4, residues 1-1053)
Sequence of UniProt Q9UJQ4 (whole entry, looked up): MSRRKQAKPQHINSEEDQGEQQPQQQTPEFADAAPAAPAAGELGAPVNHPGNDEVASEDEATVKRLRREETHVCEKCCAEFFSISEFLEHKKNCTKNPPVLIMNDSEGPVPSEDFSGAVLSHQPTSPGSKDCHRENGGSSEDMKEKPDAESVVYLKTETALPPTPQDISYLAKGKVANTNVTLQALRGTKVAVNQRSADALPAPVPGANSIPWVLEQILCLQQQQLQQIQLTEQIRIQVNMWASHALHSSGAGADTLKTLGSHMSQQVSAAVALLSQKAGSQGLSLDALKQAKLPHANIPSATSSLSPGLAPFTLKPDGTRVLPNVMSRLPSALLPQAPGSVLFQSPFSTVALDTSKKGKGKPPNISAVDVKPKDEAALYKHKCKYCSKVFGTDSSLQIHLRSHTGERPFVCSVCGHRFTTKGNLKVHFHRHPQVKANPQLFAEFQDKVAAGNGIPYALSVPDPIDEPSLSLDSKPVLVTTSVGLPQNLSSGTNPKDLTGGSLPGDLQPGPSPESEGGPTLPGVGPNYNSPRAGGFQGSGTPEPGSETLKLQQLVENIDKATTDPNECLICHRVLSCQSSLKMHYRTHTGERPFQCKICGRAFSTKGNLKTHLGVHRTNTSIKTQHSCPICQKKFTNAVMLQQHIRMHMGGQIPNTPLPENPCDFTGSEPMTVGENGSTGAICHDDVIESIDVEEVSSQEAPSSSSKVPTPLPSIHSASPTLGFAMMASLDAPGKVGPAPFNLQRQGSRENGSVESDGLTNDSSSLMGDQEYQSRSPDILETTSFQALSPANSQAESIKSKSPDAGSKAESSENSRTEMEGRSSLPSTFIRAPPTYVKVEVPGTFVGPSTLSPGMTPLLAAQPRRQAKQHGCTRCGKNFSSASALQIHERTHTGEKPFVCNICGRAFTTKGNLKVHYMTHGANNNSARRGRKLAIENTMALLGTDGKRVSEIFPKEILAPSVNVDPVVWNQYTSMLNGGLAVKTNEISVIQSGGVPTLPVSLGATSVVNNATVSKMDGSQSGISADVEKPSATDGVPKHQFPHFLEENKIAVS
Method: universal PBM
Form: double-stranded DNA, one strand shown
Matrix: in vitro
Tested at: 600 nM
Notes: 8-mer, flanks averaged, mean of replicates
Direction: higher = stronger binding
| Strand | E-score |
| --- | --- |
| CCAACGCC | -0.271 |
| CTAAGTGA | 0.00313 |
| CTACTCAC | -0.0853 |
| GCAGCTTA | -0.0826 |
| CGTTAAGC | -0.115 |
| GAAAGCGA | -0.0794 |
| TCGCATCA | 0.0151 |
| AAGCTGAT | 0.0447 |
| TCGTGGCA | 0.0927 |
| CAATTCCG | -0.185 |
| AGGCCGGG | -0.296 |
| GGAGAGAA | -0.153 |
| CCTGTTGC | -0.0373 |
| CATCCATA | 0.253 |
| ATGCGTCC | -0.217 |
| CTAACAAC | 0.0866 |
| GTACCAGA | -0.016 |
| ATACGGCG | -0.0773 |
| CAAATTGA | 0.00696 |
| GCATGGGC | -0.245 |
| CCAACTCA | -0.0461 |
| ACAAGGCG | -0.191 |

Study 2
Target: Hepatocyte nuclear factor 3-alpha (Foxa1, Mus musculus, UniProt P35582, residues 1-468, full length assumed)
Sequence of UniProt P35582 (whole entry, looked up): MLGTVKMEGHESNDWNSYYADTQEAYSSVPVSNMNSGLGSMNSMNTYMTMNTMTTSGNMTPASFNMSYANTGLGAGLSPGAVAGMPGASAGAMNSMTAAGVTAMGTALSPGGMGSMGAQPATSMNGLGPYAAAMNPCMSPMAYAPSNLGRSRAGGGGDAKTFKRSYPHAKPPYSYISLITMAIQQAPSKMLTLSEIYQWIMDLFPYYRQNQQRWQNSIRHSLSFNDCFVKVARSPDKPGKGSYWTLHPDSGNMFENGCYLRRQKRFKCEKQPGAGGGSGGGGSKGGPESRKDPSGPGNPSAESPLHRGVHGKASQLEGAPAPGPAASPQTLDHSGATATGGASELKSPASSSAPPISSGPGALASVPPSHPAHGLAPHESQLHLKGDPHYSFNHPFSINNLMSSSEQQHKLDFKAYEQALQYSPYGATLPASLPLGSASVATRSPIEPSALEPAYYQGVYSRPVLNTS
Method: EMSA with sequencing
Form: double-stranded DNA, one strand shown
Matrix: in vitro
Tested at: 10 and 20 nM
Notes: whole designed probe, mean of two concentrations, ends assumed
Reference: negative control set to 0
Direction: higher = stronger binding
Constant ends, left off below: GTGAGCGGTGCCCATTGATGGGGAAC … TTTCACTGGGATCGTGGGGAC
| Strand | normalised bound fraction [ratio] |
| --- | --- |
| TAATTGACAATAGTAGATGAGTTAGCCAGGAGACTAAATACAGGTGAAAGGATGACAGCGCTAGATCTTGACACAAATTACCTTAATGGCTGTGCAATTTGTAAGCTGGATACGATTTTTTGAAAACAAACCAAGCTAAACAATCCATTGAAGTGCTCTCTTCCATCTATACCCAGAAACAGCAATTTAGCTT | -0.000542 |
| GTTCCACTCACAGCTTGACAAGTGAACTCTTTGTCAATGACAAGGCAAAGGTTAATGATTAACAGGCACTGTATTTACCAACTTAGGAACTAAATAATCTGAATCCAGACAGGATACCATTAAGAGTTGCAGCATCACCAAAAATATCTGGCTGATTGACTGAATGTCGTCGCTTTTCTTTTTCTTTTTTTGA | 0.0675 |
| TGGCTGGCATCAAGGACTTTGGCTCTGGGGGTGTTCCCAGTCAACAGTTAACTAAAGACCAGGCCACTGTGCCTAGACTGTTTGTGCATTTGTGCAAACAATATGGGTTCATGCTGAACACCTGCGTTCCTTCTGAGAGTCTGAAAAGTTTAGAACATGCCAGGCAGAGGGTGTGTACCTGACCAACCCCCAA | 0.344 |
| GTGTGCTAGCCTGTGAGTTTTTCTCTCCAACTAGCCTGGGTACTCAGGAAAGTGAGATCAACTTGGGTGTAGCTTCTGGGTGGCCTGACCTGTGCAAATAGGGGAGACAGTTGACATACAGATGAAAGGGGAGATGGGAAGCCATACAGAGGAAGGAGAAGATCAGGAACCAGAGATAAGATAATTCTGTAAA | 0.228 |
| CTCTGAATGCAGATCACAATCTTTGTTAGTCATCTTTATCTTACTGGTTACTTTGCTACTCAAAGTACTCTTTTCCTATGGTGGAAACTCCCTAGATTACTTATTCTTCCTGACCCAGGTTTAAAAGGCCTGCCTAACCATCTCAGTAGGCTTTTCCTAGCTGATATCCTTCTGAGCTGTGGTAGAGAAAGGG | -0.0441 |

Study 3
Target: Histone acetyltransferase KAT6A, both winged helices, GST fusion (KAT6A, Homo sapiens, UniProt Q92794, residues 1-181)
Method: protein binding microarray
Form: double-stranded DNA, one strand shown
Matrix: in vitro
Tested at: not given
Notes: 8-mer, flanks averaged, mean of 2 arrays, mostly near background
Reference: not given
Direction: higher = stronger binding
Target sequence (chain): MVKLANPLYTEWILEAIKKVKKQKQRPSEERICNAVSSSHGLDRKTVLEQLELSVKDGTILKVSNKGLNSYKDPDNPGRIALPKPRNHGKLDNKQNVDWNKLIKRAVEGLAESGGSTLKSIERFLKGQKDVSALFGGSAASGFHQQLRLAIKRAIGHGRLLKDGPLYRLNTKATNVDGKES
| Strand | E-score |
| --- | --- |
| GCCCTCAA | -0.134 |
| CTTGGAGA | -0.112 |
| CACACCCA | -0.0638 |
| ACCATTGC | 0.00211 |
| CATAGCCC | -0.158 |
| AGCTTGCC | 0.0897 |
| GCACCCCC | -0.0846 |
| GTGTCGGA | 0.0735 |
| ACCTAGGA | -0.193 |
| GCTGAAGC | 0.024 |
| GAGAGAAC | -0.207 |
| AGAAAAAT | -0.15 |
| AATTCAAT | -0.0138 |
| ATCCTCCA | -0.207 |
| CTCCCAGC | -0.129 |
| ACTTTCGC | 0.0791 |
| ATGAATTG | 0.0714 |
| ACATTAAG | -0.121 |
| AGGTGTCG | 0.0411 |
| CAAGAAAG | -0.25 |
| CGTTGATA | 0.125 |
| CAGACAAC | -0.0714 |

Study 4
Target: Prothrombin, mature alpha-thrombin (F2, Homo sapiens, UniProt P00734)
Method: aptamer microarray, sandwich
Form: DNA with 2'F-ANA
Matrix: in vitro
Tested at: 200 nM
Notes: whole 15-mer aptamer, many near background
Together with: Cy3 exosite-II aptamer, 400 nM
Direction: higher = stronger binding
Strand: GGTTGGTGTGGTTGG
| Modification | mean fluorescence intensity [a.u.] |
| --- | --- |
| 2'F-ANA at 3 4 5 7 8 10 12 | 86.1 |
| 2'F-ANA at 1 2 3 4 7 8 9 12 15 | 384 |
| 2'F-ANA at 1 2 4 6 7 9 10 11 12 15 | 55.1 |
| 2'F-ANA at 1 3 4 6 9 12 13 14 | 66.6 |
| 2'F-ANA at 2 3 5 7 10 11 12 13 15 | 57.6 |
| 2'F-ANA at 3 4 7 10 12 14 | 239 |
| 2'F-ANA at 3 4 5 6 8 10 11 13 15 | 45.1 |
| 2'F-ANA at 1 2 4 5 9 10 11 12 | 105 |
| 2'F-ANA at 1 2 4 5 7 8 10 11 12 | 55.8 |
| 2'F-ANA at 1 2 3 5 6 7 8 14 15 | 48.4 |
| 2'F-ANA at 2 3 6 8 12 13 14 | 442 |
| 2'F-ANA at 1 3 6 10 15 | 78.5 |
| 2'F-ANA at 1 2 4 7 9 | 207 |
| 2'F-ANA at 2 3 4 5 6 7 9 10 11 14 | 49 |
| 2'F-ANA at 6 10 11 12 13 14 | 92.1 |
| 2'F-ANA at 2 3 5 9 10 13 15 | 53.2 |
| 2'F-ANA at 1 5 6 7 9 11 12 15 | 89.8 |
| 2'F-ANA at 6 8 9 10 13 14 | 94.3 |
| 2'F-ANA at 5 8 9 10 13 15 | 67.1 |
| 2'F-ANA at 1 2 4 5 7 9 10 11 13 14 | 57.9 |
| 2'F-ANA at 4 5 8 10 11 12 | 46.1 |
| 2'F-ANA at 1 4 7 9 10 11 12 13 15 | 52.8 |

For quick reference, copied from above (study 1):
| Strand | E-score |
| --- | --- |
| CGTTAAGC | -0.115 |
| ACAAGGCG | -0.191 |
| ATGCGTCC | -0.217 |
| AGGCCGGG | -0.296 |
| GGAGAGAA | -0.153 |
